Assay results gathered from unrelated publications.
Each numbered part is a random draw from the data of one study; scales do not carry over between parts. Substitutions count along the parent as printed.

Block 1
Target: Sal-like protein 4, full length isoform A (SALL4, Homo sapiens, UniProt Q9UJQ4, residues 1-1053)
Chain of UniProt Q9UJQ4 (whole entry, looked up): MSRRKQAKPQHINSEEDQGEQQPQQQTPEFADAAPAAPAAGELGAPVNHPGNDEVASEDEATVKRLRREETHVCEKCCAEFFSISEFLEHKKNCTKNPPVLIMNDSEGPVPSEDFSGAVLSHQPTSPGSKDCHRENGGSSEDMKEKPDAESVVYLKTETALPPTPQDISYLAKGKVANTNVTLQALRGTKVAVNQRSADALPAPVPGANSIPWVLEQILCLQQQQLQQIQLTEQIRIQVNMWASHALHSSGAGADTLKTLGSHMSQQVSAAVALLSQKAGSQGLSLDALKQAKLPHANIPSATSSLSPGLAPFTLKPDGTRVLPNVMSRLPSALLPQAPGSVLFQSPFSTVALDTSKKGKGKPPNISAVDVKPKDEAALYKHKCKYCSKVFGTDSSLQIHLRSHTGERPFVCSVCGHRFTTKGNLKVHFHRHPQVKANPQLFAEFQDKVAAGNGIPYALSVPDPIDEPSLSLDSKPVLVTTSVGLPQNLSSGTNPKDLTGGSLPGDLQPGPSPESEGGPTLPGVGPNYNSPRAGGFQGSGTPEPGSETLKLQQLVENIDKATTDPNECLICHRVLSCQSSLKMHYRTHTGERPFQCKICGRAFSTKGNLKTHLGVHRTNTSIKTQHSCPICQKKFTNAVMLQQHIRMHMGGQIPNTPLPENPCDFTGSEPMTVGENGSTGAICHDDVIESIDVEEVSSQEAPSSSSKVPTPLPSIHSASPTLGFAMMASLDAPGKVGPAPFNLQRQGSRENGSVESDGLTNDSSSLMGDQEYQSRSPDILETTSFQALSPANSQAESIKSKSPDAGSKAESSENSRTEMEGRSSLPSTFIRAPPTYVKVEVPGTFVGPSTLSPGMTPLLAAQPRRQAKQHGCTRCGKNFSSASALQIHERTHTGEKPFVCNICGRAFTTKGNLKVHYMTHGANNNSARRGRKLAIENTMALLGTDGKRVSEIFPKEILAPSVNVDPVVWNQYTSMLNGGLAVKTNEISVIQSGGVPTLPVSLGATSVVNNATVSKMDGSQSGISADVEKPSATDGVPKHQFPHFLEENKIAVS
Technique: universal PBM
Form: double-stranded DNA, one strand shown
Sample: in vitro
Concentration: 600 nM
Notes: 8-mer, flanks averaged, mean of replicates
Direction: higher = stronger binding
With `ATTTGTCA` the E-score was 0.211.
For `CGAACCTA`, the E-score was -0.131.
With `ATGGTCGA` the E-score was 0.0569.
With `GCAACAGA` the E-score was 0.0564.
For `ATGAGGCA`, the E-score was 0.0195.
For `AGAGCGGC`, the E-score was -0.158.
`CTAAGATC` has an E-score of -0.0224.
`GGGAAGAC` gave an E-score of -0.21.
With `CCGGTCAG` the E-score was -0.275.
`ACGTAGCA` gave an E-score of -0.0922.
`AGGCGCTA` has an E-score of -0.0452.

Block 2
Target: CCND2, cyclin fold, Cln2 fusion (human)
Technique: yeast growth competition, sequencing
Sample: yeast
Notes: weak parent motif
Relative to: not given
Direction: higher = stronger binding
Parent: CUX1 docking peptide (human); SRIRRELFIEEIQ; partner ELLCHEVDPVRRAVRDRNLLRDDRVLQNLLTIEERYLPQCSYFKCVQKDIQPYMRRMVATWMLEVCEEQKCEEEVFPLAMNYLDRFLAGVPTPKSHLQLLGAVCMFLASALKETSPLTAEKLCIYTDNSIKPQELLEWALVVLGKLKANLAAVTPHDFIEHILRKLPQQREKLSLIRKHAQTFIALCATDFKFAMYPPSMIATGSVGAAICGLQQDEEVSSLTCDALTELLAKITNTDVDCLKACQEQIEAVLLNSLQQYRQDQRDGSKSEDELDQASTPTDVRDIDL
For `F8A`, “normalised enrichment score” read 0.323.
`E6A` — result for “normalised enrichment score”: 0.233.
`R5K`: “normalised enrichment score” 0.392.
Under “normalised enrichment score”, `E10A` is recorded as 0.657.
For `S1A`, “normalised enrichment score” read 0.67.
For `R4A`, “normalised enrichment score” read 0.286.
`I9A`: “normalised enrichment score” -0.205.

Block 3
Target: ABI1, truncated, D143A, DHFR fusion (Arabidopsis thaliana)
Technique: DHFR PCA, deep sequencing
Sample: yeast
Notes: methotrexate growth selection, single substitutions
Together with: (+)-ABA 710 µM
Relative to: wild-type fitted maximum
Direction: higher = stronger binding
Parent: PYL1, truncated, DHFR fusion (Arabidopsis thaliana); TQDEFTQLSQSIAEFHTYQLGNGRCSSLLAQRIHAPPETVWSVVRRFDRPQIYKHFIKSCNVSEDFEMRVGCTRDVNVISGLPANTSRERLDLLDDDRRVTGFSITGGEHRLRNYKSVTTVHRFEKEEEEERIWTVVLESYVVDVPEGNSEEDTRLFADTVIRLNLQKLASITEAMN; partner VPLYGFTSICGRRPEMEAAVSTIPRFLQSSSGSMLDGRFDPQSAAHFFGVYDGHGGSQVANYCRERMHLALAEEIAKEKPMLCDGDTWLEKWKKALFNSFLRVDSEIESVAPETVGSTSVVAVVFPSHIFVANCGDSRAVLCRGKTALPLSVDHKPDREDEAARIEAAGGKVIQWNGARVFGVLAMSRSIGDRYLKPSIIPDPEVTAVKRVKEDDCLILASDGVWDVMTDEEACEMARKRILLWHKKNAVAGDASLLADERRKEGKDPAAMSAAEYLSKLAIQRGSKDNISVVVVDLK
For `Q51V`, “relative binding score” read 72.8%.
For `L91K`, “relative binding score” read -2.16%.
For `A175T`, “relative binding score” read 96.5%.
`E109N` — result for “relative binding score”: 117%.
`E64K`: “relative binding score” 106%.
Under “relative binding score”, `Y141G` is recorded as -6.54%.
`G107S` — result for “relative binding score”: 101%.
For `V78H`, “relative binding score” read 63.2%.
For `I12H`, “relative binding score” read 82.3%.
For `L8M`, “relative binding score” read 96.9%.
For `S104I`, “relative binding score” read 65.6%.
`P50E` — result for “relative binding score”: -7.7%.
`R113A`: “relative binding score” 105%.
`D159K`: “relative binding score” 74.9%.
Under “relative binding score”, `I52D` is recorded as 103%.
For `E139C`, “relative binding score” read 103%.
For `M68E`, “relative binding score” read 94.5%.

Further values, each from its own experiment
The fold induction of `PhoQ, residues 284 288 289 292 302 303 AQGLTV` is reported as 23.5 (PhoP, residues 12 14 15 18 19 NQCAL (Escherichia coli, UniProt P23836); Sort-seq, item: YFP reporter; E. coli; PhoQ-PhoP variant library, together with: 10 µM Mg2+; relative to: high Mg2+ state, higher = stronger signaling).

Excerpt of the above (block 3):
`R113A`: “relative binding score” 105%.
For `I12H`, “relative binding score” read 82.3%.
`E109N` — result for “relative binding score”: 117%.
`P50E` — result for “relative binding score”: -7.7%.
For `V78H`, “relative binding score” read 63.2%.
